{"data": "Measured values of several laboratories", "Genome polyprotein NS2B-NS3 protease": "Genome polyprotein, NS2B-NS3 protease (dengue virus type 2, UniProt P29990)", "note": "Compare with care: the assays were run in different laboratories. ± gives the spread as reported."}
{"SMILES": "CNS(=O)(=O)Nc1nccc(Cc2c(C)c3ccc(Oc4ncccc4F)cc3oc2=O)c1F", "target or system": "COR-L23", "test": "cell viability", "setting": "7 days", "measurement": "IC50", "value": "0.0171 µM"}
{"SMILES": "N#Cc1cc(NC(=O)c2cc(-c3ccccc3)n(-c3ccccc3)n2)ccc1N1CCCC1", "target or system": "Genome polyprotein NS2B-NS3 protease", "test": "reporter gene", "test system": "HeLa", "measurement": "EC50", "value": "29 µM"}
{"SMILES": "C[n+]1ccc(/C=N/NC(=O)c2ccc3ccc(C(=O)N/N=C/c4cc[n+](C)c5ccccc45)nc3n2)c2ccccc21", "target or system": "telomeric G4 DNA hybrid-2", "test": "FRET melting", "setting": "1 µM, DNA 0.2 µM, added: duplex DNA competitor 10 µM", "measurement": "ΔTm", "value": "26.7 ± 1.4 °C"}
{"SMILES": "CN1CCCNC(=O)c2cccc(c2)C(=O)NCCCN(C)CCCNc2cccc3c2C(=O)c2cccc(c2C3=O)NCCC1", "target or system": "SAS", "test": "RNA-Seq, measured: PDP2 mRNA", "setting": "1 µM, 6 h", "scale": "reference: untreated cells", "measurement": "log2 fold change", "value": 0.624}
{"SMILES": "COC1CN([C@H]2CC[C@H]([C@@]3(C)Oc4c(Cl)cc(C(=O)NCc5c(SC)cc(C)[nH]c5=O)c(C)c4O3)CC2)C1", "test": "RNA-seq, measured: HEMGN", "test system": "human, whole blood", "setting": "dose not given, 24 h", "scale": "reference: pretreatment baseline", "measurement": "log2 fold change", "value": 1.4}
{"SMILES": "CNC(=O)C1CCCN(C(=O)C2CC3CCC2N3C(=O)[C@@H]2C[C@@H](O)CN2C(=O)NCc2cccc(Cl)c2F)C1 (mixture of isomers)", "target or system": "human CYP3A4", "test": "time-dependent inhibition", "setting": "0.206 µM, preincubation with NADPH, added: testosterone", "measurement": "6β-hydroxytestosterone formed", "value": "187 ng/mL"}
{"SMILES": "Cc1ncsc1-c1ccc(C(C)NC(=O)C2CC(O)CN2C(=O)C(NC(=O)CCCCCCCCCCN2CCCC(Nc3ncc(Cl)c(Nc4ccccc4S(=O)(=O)C(C)C)n3)C2)C(C)(C)C)cc1 (centres unmarked)", "target or system": "22Rv1", "test": "RNA-seq, measured: TFAP4 mRNA", "setting": "concentration not given", "scale": "reference: DMSO", "measurement": "log2 fold change", "value": -1.93}
{"SMILES": "O=C(N/N=C/c1cc[n+](Cc2ccccc2)c2ccccc12)c1cc(C(=O)N/N=C/c2cc[n+](Cc3ccccc3)c3ccccc23)ncn1", "target or system": "telomeric G4 DNA hybrid-2", "test": "FRET melting", "setting": "1 µM, DNA 0.2 µM", "measurement": "ΔTm", "value": "13.2 ± 0.2 °C"}
{"SMILES": "N=C(N)NCCC[C@@H]1NC(=O)[C@H](CCCNC(=N)N)NC(=O)[C@@H](C(c2ccccc2)c2ccccc2)NC(=O)[C@H](Cc2c[nH]c3ccccc23)NC(=O)[C@@H](C(c2ccccc2)c2ccccc2)NC(=O)[C@@H](CCCNC(=N)N)NC(=O)[C@@H](CCCNC(=N)N)NC1=O", "target or system": "Aspergillus fumigatus", "test system": "Af 293", "setting": "4 x MIC, 8 h", "measurement": "reduction of viable cells", "value": "> 85%"}
{"SMILES": "CC(=O)[O-].O.O.[O-]c1ccc(Br)cc1C=NCCN1CCOCC1.[Zn+2]", "test": "FRAP", "setting": "120 µM", "measurement": "ferric reducing power", "value": "26.8%"}
{"SMILES": "O=C(N/N=C/c1cc[n+](CC2CC2)c2ccccc12)c1cncc(C(=O)N/N=C/c2cc[n+](CC3CC3)c3ccccc23)n1", "target or system": "telomeric G4 DNA hybrid-2", "test": "FRET melting", "setting": "1 µM, DNA 0.2 µM, added: duplex DNA competitor 10 µM", "measurement": "ΔTm", "value": "23.5 ± 0.3 °C"}
{"SMILES": "C=C(NC(=O)c1csc(-c2nc3c(cc2O)-c2nc(cs2)C(=O)NC(C(C)O)C(=O)NC(=C(C)OC)c2nc(cs2)C(=O)NC2c4nc(cs4)C(=O)NC(COC(=O)c4c5c6c(cccc6n4O)COC(=O)C(OC4CC(C)(O)C(N(C)C)C(C)O4)C2OC5)c2nc-3cs2)n1)C(N)=O (centres unmarked)", "target or system": "Enterococcus faecalis", "test system": "vancomycin-intermediate, 10 isolates", "setting": "pH 8.5", "measurement": "MIC50", "value": "0.0312 µg/mL"}
{"SMILES": "CC(C)(C)c1cc(-c2ccc3cccnc3n2)nc(-c2ccc3cccnc3n2)c1.COc1ccncc1.[Cl-].[Cl-].[Ru+2].c1ccc2cc3nc4c5cccnc5c5ncccc5c4nc3cc2c1", "target or system": "SK-MEL-28", "setting": "visible light", "scale": "reference: dark EC50 over light EC50", "measurement": "phototherapeutic index", "value": 198}
{"SMILES": "Nc1ncc(-c2cc(-c3cnn(CC(F)(F)F)c3)ncc2F)nc1C(=O)NC1CNCC(F)C1 (centres unmarked)", "target or system": "LZK", "test": "KINOMEscan competition binding", "setting": "1 µM", "scale": "reference: DMSO control", "measurement": "remaining binding", "value": "100%"}
{"SMILES": "CCCC[C@H](NC(=O)COCCOCCNC(=O)CN1CCN(CC(=O)O)CCN(CC(=O)O)CC1)C(=O)N[C@H]1CC(=O)NCCCC[C@@H](C(N)=O)NC(=O)[C@H](Cc2c[nH]c3ccccc23)NC(=O)[C@H](CCCNC(=N)N)NC(=O)[C@@H](Cc2ccccc2)NC(=O)[C@H](Cc2c[nH]cn2)NC1=O [technetium-99m labelled]", "test system": "C57 mouse, spleen", "setting": "intravenous, 0.037 MBq, 24 h", "measurement": "tissue uptake", "value": "0.11 ± 0.01 %ID/g"}
{"SMILES": "C=CC(=O)N1[C@@H](c2ccc3c(c2)OCO3)c2[nH]c3ccccc3c2C[C@H]1C(=O)N1CCN(C)CC1", "target or system": "human cyclin E1 N112C-3xFLAG:CDK2", "test": "co-IP with TMT proteomics, measured: SRP9", "setting": "concentration not given, P49458", "scale": "reference: wild type DMSO", "measurement": "relative co-enrichment", "value": "106%"}
{"SMILES": "CC[n+]1cccc2cc(/C=N/NC(=O)c3ccc4ccc5ccc(C(=O)N/N=C/c6ccc7c(ccc[n+]7CC)c6)nc5c4n3)ccc21", "target or system": "telomeric G4 DNA hybrid-2", "test": "FRET melting", "setting": "1 µM, DNA 0.2 µM", "measurement": "ΔTm", "value": "36 ± 1.1 °C"}
{"SMILES": "C=CC(=O)Nc1cccc(Cn2ncc3cnc(Nc4cnn(CCOC)c4)nc32)c1", "target or system": "MAPKAPK2 human", "test": "binding, KINOMEscan", "setting": "100 nM", "scale": "lower = stronger binding", "measurement": "percent of control", "value": "100%"}
{"SMILES": "O=C(N/N=C/c1ccc(C[n+]2ccccc2)cc1)C(=O)N/N=C/c1ccc(C[n+]2ccccc2)cc1", "target or system": "telomeric G4 DNA hybrid-2", "test": "FRET melting", "setting": "1 µM, DNA 0.2 µM, added: duplex DNA competitor 10 µM", "measurement": "ΔTm", "value": "2.1 ± 1.6 °C"}
{"SMILES": "NC(=O)c1cccc(NC(=O)c2cc(O)n(-c3ccccc3)n2)c1", "target or system": "Genome polyprotein NS2B-NS3 protease", "test": "reporter gene", "test system": "HeLa", "measurement": "EC50", "value": "> 50 µM"}
